Assay results collected from several papers.
Lines come from different studies, so protocols differ. Numbers after ± are the reported error.

CC(=O)N[C@@H](Cc1ccc(O)cc1)CN(CC(=O)N[C@@H](CCCCN)CN(CC(=O)N[C@@H](Cc1ccccc1)CN(CC(=O)N[C@H]1CCCCNc2c(F)c(F)c(c(F)c2F)S(=O)(=O)c2c(F)c(F)c(c(F)c2F)NCCCC[C@@H](CN(CC(=O)N[C@@H](C)CN(CC(N)=O)S(C)(=O)=O)S(C)(=O)=O)NC(=O)CN(S(=O)(=O)CC(C)C)C[C@H](CC(C)C)NC(=O)CN(S(=O)(=O)CCN)C1)S(=O)(=O)CC(C)C)S(=O)(=O)CCN)S(=O)(=O)Cc1ccccc1
IC50 (CREB; reporter gene, inhibitor, CRE Renilla luciferase; HEK-293T; 30 min, added: forskolin 10 µM for 5 h): 54.1 ± 18.2 µM

C[C@@H](N)C1CCN(S(=O)(=O)c2cccc3cnccc23)CC1
EC50 (ROCK; MLC2 phosphorylation, inhibitor, Western blot; hBMVEC; 1 h, added: LPA 5 min): 26.3 µM

CC[C@H](C)[C@H](NC(=O)[C@H](CCC(=O)O)NC(=O)[C@H](CO)NC(=O)[C@@H](NC(=O)[C@@H](N)CO)C(C)C)C(=O)N[C@@H](CCC(N)=O)C(=O)N[C@@H](CC(C)C)C(=O)N[C@@H](CCSC)C(=O)N[C@@H](Cc1c[nH]cn1)C(=O)N[C@@H](CC(N)=O)C(=O)N[C@@H](CC(C)C)C(=O)NCC(=O)N[C@@H](CCCCN)C(=O)N[C@@H](Cc1c[nH]cn1)C(=O)N[C@@H](CC(C)C)C(=O)N[C@@H](CC(N)=O)C(=O)N[C@@H](CO)C(=O)N[C@@H](CCSC)C(=O)N[C@@H](CCC(=O)O)C(=O)N[C@@H](CCCNC(=N)N)C(=O)N[C@H](C(=O)N[C@@H](CCC(=O)O)C(=O)N[C@@H](Cc1c[nH]c2ccccc12)C(=O)N[C@@H](CC(C)C)C(=O)N[C@@H](CCCNC(=N)N)C(=O)N[C@@H](CCCCN)C(=O)N[C@@H](CCCCN)C(=O)N[C@@H](CC(C)C)C(=O)N[C@@H](CCC(N)=O)C(=O)N[C@@H](CC(=O)O)C(=O)N[C@H](C(=O)N[C@@H](Cc1c[nH]cn1)C(=O)N[C@@H](CC(N)=O)C(=O)N[C@@H](Cc1ccccc1)C(=O)O)C(C)C)C(C)C
duration of maximal cAMP (PTH1 receptor; cAMP level, Epac FRET sensor; HEK293; after ligand washout): ≥ 20 min

Cc1sc2ncn(CC(=O)N3CCCC3)c(=O)c2c1-c1cccc(Br)c1
γ3 conductance level area (NMDA receptor, mouse; single-channel current, outside-out patch; cortical neurons; 50 µM, added: Ca2+ 1.25 mM): 3%

CC[C@H]1[C@@H](O)[C@@H]2[C@H](CC[C@]3(C)[C@@H]([C@H](C)CCOS(=O)(=O)[O-])CC[C@@H]23)[C@@]2(C)CC[C@@H](O)C[C@@H]12.[Na+]
plasma total cholesterol (ob/ob NASH mice, plasma; oral, 3 mg/kg once daily, baseline before treatment, 8 wk study): 10.3 ± 0.8 mmol/L

CC(=O)[O-].O.O.O.O.[Mn+2].[O-]c1ccc(Br)cc1C=NCCN1CCOCC1
inhibition zone diameter (Escherichia coli; 20 µL of 100 µM per disc): 19 mm

C=C(c1cc(F)c(C(=O)O)c(F)c1)c1cc2c(cc1C)C(C)(C)CCC2(C)C
log2 fold change (RNA sequencing, measured: Arl11 mRNA; rat, brain; dose not given, 24 h, single dose; baseline: vehicle): -0.22

O=Cc1c(O)ccc2ccccc12
differentially expressed genes (HUVEC; RNA sequencing; 75 µM, 24 h, ≥2.5-fold change; baseline: vehicle): 457 genes

C[C@@H]1O[C@@H](O[C@H]2[C@H](O[C@H]3CC[C@@]4(C)C(CC[C@]5(C)C4CC=C4C6CC(C)(C)CC[C@]6(C(=O)O)CC[C@]45C)C3(C)C)OC[C@H](O[C@@H]3O[C@H](CO)[C@@H](O)[C@H](O)[C@H]3O)[C@@H]2O)[C@H](O)[C@H](O)[C@H]1O (stereo partly shown)
EC50 (PPARs; reporter gene, agonist; HepG2 transfected PPRE-luciferase and PPAR; 20 h): 10.8 ± 4.2 µM

CSCCN(CCSC)CCc1ccccn1
pCu (Cu(I); competition titration; 10 µM, pH 7.0, ionic strength 0.1, added: Cu(I) 1 µM; higher = stronger binding): 16.2

Some of these lines once more:
CC[C@H]1[C@@H](O)[C@@H]2[C@H](CC[C@]3(C)[C@@H]([C@H](C)CCOS(=O)(=O)[O-])CC[C@@H]23)[C@@]2(C)CC[C@@H](O)C[C@@H]12.[Na+]
plasma total cholesterol (ob/ob NASH mice, plasma; oral, 3 mg/kg once daily, baseline before treatment, 8 wk study): 10.3 ± 0.8 mmol/L
